# Assay results collected from several papers.
# Protocols differ between the studies behind these lines. Several values in a cell are separate wells, animals, samples, runs or records. ± marks the error that the study gave.
SMILES,test,system,conditions,how to read,quantity,value
CCN1[C@@H](C(=O)NC23CCC(C(=O)O)(CC2)CC3)[C@H](c2cccc(Cl)c2F)[C@]2(C(=O)Nc3cc(Cl)ccc32)C12CCCCC2,,"human, advanced solid tumours, TP53 wild type",dose not given,,median progression-free survival,7.9 months
C[C@H]1C[C@H]2CSC(N)=N[C@@]2(c2nc(NC(=O)c3ccc(OC(F)F)cn3)cs2)CO1,measured: Aβx-40,"healthy adults, plasma","200 mg single dose, 6 h post-dose",reference: placebo,percent change from baseline,-65.1%
C[C@@H](NC(=O)N1C(=O)[C@H](Cc2ccnc(N)c2)[C@H]1C(=O)O)C1CCCCC1,,human,"iv infusion, 0.3 mg/kg/h, 24 h, unit not given",reference: baseline,aPTT AUEC,173
O=C(COc1ccc(Cl)cc1)NC12CC(c3nnc([C@H]4C[C@@H](OC(F)(F)F)C4)o3)(C1)C2,measured: ATF4,"PBMC ex vivo stimulated, human ALS patients","100 mg, D21 predose",reference: baseline,protein level change,-59.3%
Cc1cnc(N2CC3(CCOCC3)C2)c(C(=O)Nc2ccc(C(=O)N3CCc4cc(C(=O)Nc5c(C)cccc5F)sc4-c4ccccc43)cc2)c1,measured: CXCL8,"human RSV infection, plasma","dose not given, AUC, ITT-IS population",reference: placebo,inhibition,53%
CC1(C)CCC2(CC1)N[C@@H](C(=O)N[C@@H]1CC[C@@H](C(N)=O)OC1)[C@H](c1ccnc(Cl)c1F)[C@]21C(=O)Nc2cc(Cl)ccc21,,"human, solid tumours","90 mg/day, RECIST",reference: patients,non-evaluable patients,20%
COc1ccc(-c2cncc(N[C@@H](C)c3cccc(NC(=O)c4cncc(C)c4)c3)n2)cc1OC,measured: rno-miR-361-5p,"rat SU5416/hypoxia model, lung","dose not given, unit not given",reference: SU5416/hypoxia vehicle,delta delta Ct,-0.0536
N#Cc1ccn2c(-c3ccncc3)c(-c3ccc(F)cc3)nc2c1,"kinase binding, competitor, MIB/MS competition, measured: ENV7",Candida albicans cell lysate,100 nM,reference: DMSO,log2 fold change,-0.0593
CCN1CCN(Cc2ccc(Nc3ncc(F)c(-c4cc(F)c5nc6n(c5c4)[C@H](C)CCC6)n3)nc2)CC1,,human advanced solid tumours,"500 mg, phase Ia monotherapy RECIST 1.1",,non-CR/non-PD,0%
OC(CCN1CCCCC1)(c1ccccc1)C1CC2C=CC1C2 (stereo not drawn),resting-state EEG,healthy elderly humans,"oral, 2 mg, eyes open, LS mean",,EEG Beta3-power Pz-O1,2.1 µV²
FC(F)(F)Oc1cccc(-c2ccnc3[nH]c(C(F)(F)F)nc23)c1,,GAN diet MASH mice,"300 mg/kg, 31 days",reference: GAN control,liver triglycerides,decreased
Cc1cc([C@H]2C[C@H]3[C@@H](C)SC(N)=N[C@@]3(c3ccc(F)cc3F)CO2)on1,measured: Aβx-42,"Mus musculus wild-type, brain","subcutaneous, 50 mg/kg, 7 h",,Aβ42 level,0.21 ng/g
CC(CCc1ccc(O)cc1)NCCc1ccc(O)c(O)c1 (stereo not drawn),,anaesthetised rat,"intravenous infusion, 1 µg/kg/min for 15 min",reference: baseline,dP/dtmax change,17.1%
CCCCC1(CCCC)CN(c2ccccc2)c2cc(SC)c(OCC(=O)N[C@@H](C(=O)NCC(=O)O)c3ccccc3)cc2S(=O)(=O)C1,measured: 7α-hydroxy-4-cholesten-3-one,"human, plasma","15 mg once daily, day 1",,plasma C4,21.7 ng/mL
Cc1n[nH]c2ccc(-c3cc(OC[C@@H](N)Cc4ccccc4)cnc3-c3ccoc3)cc12,"kinase binding, competitor, MIB/MS competition, measured: MKK2",Candida albicans cell lysate,10 µM,reference: DMSO,log2 fold change,-1.11
Cc1ccc([C@@H]2O[C@H](CO)[C@@H](O)[C@H](O)[C@H]2O)cc1Cc1ccc(-c2ccc(F)cc2)s1,,Japanese type 2 diabetes patients,"400 mg, day 16",reference: day 0,"change, mean 24 h, plasma glucose",-75 mg/dL
CN(C)C(=O)Oc1cccc([N+](C)(C)C)c1,neuromuscular block reversal,rat,"dose not given, 5 (unit not given), added: cisatracurium",reference: T1 twitch,train-of-four ratio,22.4
Cc1cc(C)c(CNC(=O)c2cc(Cl)c3c(c2C)O[C@@](C)([C@H]2CC[C@H](N(C)C)CC2)O3)c(=O)[nH]1,"IWG criteria, CR or PR",relapsed/refractory AITL patients,dose not given,,overall response rate,64%
CC[C@@H](C)[C@@H](NC(=O)[C@@H](Cc1ccc(O)cc1)NC(=O)[C@H]1CCCN1C(=O)[C@@H](CCCNC(=N)N)NC(=O)[C@H](N)Cc1c[nH]cn1)C(=O)N[C@H](C)C(=O)N[C@H](Cc1c[nH]cn1)C(=O)N[C@H](CCCNC(=N)N)C(=O)N[C@@H](C(=O)N[C@H](Cc1ccc(O)cc1)C(=O)N[C@H](CO)C(=O)N[C@H](Cc1ccccc1)C(N)=O)C(C)C,ex vivo flow cytometry,"B16 tumour-bearing mice, tumour-draining lymph node",dose not given,,IFN-γ+ CD8+ T cell frequency,4.03% and 6.07% and 6.63% and 4.09% and 5.53%
O=C(/C=C/c1ccc(O)c(O)c1/C=C/c1ccc(O)c(O)c1)O[C@H](Cc1ccc(O)c(O)c1)C(=O)O,,isolated myocardial tissue,1 µM,,LVP,20.2 mmHg
O=C(NO)c1ccc(CN(c2cnccn2)c2cnccn2)cc1,,"human, refractory solid tumours","dose not given, phase I, RECIST 1.1, sample B patients",,median progression-free survival,1.8 months
N=C(N)NCCC[C@H](NC(=O)[C@H](CCCNC(=N)N)NC(=O)[C@H](CCCCN)NC(=O)[C@H](CCC(N)=O)NC(=O)[C@H](CCCCN)NC(=O)[C@H](Cc1ccc(O)cc1)NC(=O)[C@@H](N)CCCCN)C(=O)N[C@@H](CO)C(=O)N[C@@H](Cc1ccc(O)cc1)C(=O)N[C@@H](CCCCN)C(=O)O,,"human, dentin hypersensitivity patients","topical to tooth, 5 µg/tooth repeated, day 36, phase 1/2a trial",direction not given,change in Schiff sensitivity score,-1.2 ± 0.84
COc1nc(NCc2cn(-c3ccc(C(=O)Nc4ccc(C(F)(F)F)cc4)cc3)nn2)nc(OC)n1,MTT,"normal colonocytes, rat",72 h,,maximum non-toxic concentration,43.4 ± 0.87 nM
c1ccc(-c2n[nH]cc2-c2ccnc3ccccc23)nc1,"kinase binding, competitor, MIB/MS competition, measured: HST7",Candida albicans cell lysate,1 µM,reference: DMSO,log2 fold change,1.72
CCCCCCCC(=O)c1c(OC)cc(OC)cc1C(=O)OC,comet,male Swiss mice,"dose not given, added: cyclophosphamide",,reduction of DNA damage,≤ 33.8%
Cn1cc(Nc2nccc(-c3ccc4c(c3)CN(C3COC3)CC[C@H]4NC(=O)c3cn(C(C)(C)C)nn3)n2)cn1,measured: Valine Degradation I,"splenic B cells, Mus musculus","30 mg/kg, added: IgD activation","reference: vehicle, direction not given",pathway activation z-score,1
Cc1cc([C@H]2C[C@H]3[C@@H](CF)SC(N)=N[C@@]3(c3ccc(F)cc3F)CO2)on1,measured: Aβx-42,"Mus musculus wild-type, brain","subcutaneous, 30 mg/kg, 9 h",,Aβ42 level,0.57 ng/g
C=C1CC[C@H](OCCCNC(=O)CCOCCOCCOCCOCCOCCOCCOCCOCCOCCOCCOCCOCCOCCOCCOCCOCCOCCOCCOCCOCCOCCOCCOCCOCCOCCOCCOCCOCCOCCOCCOCCOCCOCCOCCOCCOCCNC(=O)CCN2C(=O)CC(SC[C@H](NC(=O)[C@H](CCCNC(=N)N)NC(=O)[C@@H]3CCCN3C(=O)[C@H](CCC(N)=O)NC(=O)[C@H](CC(C)C)NC(=O)[C@H](CCCCN)NC(=O)[C@H](C)NC(=O)[C@@H]3CCCN3C(=O)[C@@H]3CCCN3C(=O)[C@H](CCCCN)NC(=O)[C@H](CCCCN)NC(=O)[C@H](CO)NC(=O)[C@H](CCC(=O)O)NC(=O)[C@H](CCCCN)NC(=O)[C@H](CCCNC(=N)N)NC(=O)[C@H](CCC(N)=O)NC(=O)[C@H](CCC(N)=O)NC(=O)[C@@H](NC(=O)[C@H](CCCNC(=N)N)NC(=O)[C@H](CCC(N)=O)NC(=O)[C@H](Cc3c[nH]cn3)NC(=O)[C@H](CCC(=O)O)NC(=O)[C@@H]3CCCN3C(=O)[C@H](CO)NC(=O)[C@H](CC(C)C)NC(=O)[C@H](Cc3ccccc3)NC(=O)[C@H](CNC(=O)CCCCCCC)NC(=O)[C@H](CO)NC(=O)CN)C(C)C)C(=O)O)C2=O)C/C1=C/C=C1\CCC[C@]2(C)[C@@H]([C@H](C)CCCC(C)(C)O)CC[C@@H]12 (stereo partly drawn),"real-time RT-PCR, measured: Tnf and Ccl2","mice, LLC tumour-bearing, gastrocnemius/plantaris muscle",daily or every other day,reference: pair-fed,mRNA level,no effect
CSCCNc1nc(SCCC(F)(F)F)nc2c1ncn2[C@@H]1O[C@H](COP(=O)(O)OP(=O)(O)C(Cl)(Cl)P(=O)(O)O)[C@@H](O)[C@H]1O,"platelet aggregation, light transmission aggregometry","human patients, platelet-rich plasma","dose not given, 1 h, inhibition threshold 90%, added: TRAP 15 µM",,patients with inhibition above threshold,0%
C=CCn1c(=O)c2cnc(Nc3ccc(N4CCN(C)CC4)cc3)nc2n1-c1ccc2c(n1)[C@@](O)(CC)CC2,,"Calu-3, NOD/SCID mice, xenograft","oral, 80 mg/kg once daily, day 28",reference: vehicle,tumour growth inhibition,75.7%
COc1cc2cc(-c3ccc(CC(=O)Nc4cc(C(C)(C)C(F)(F)F)no4)cn3)cnc2cc1OC,,human RET-mutant medullary thyroid cancer,"75 mg, phase I, RECIST 1.1",,disease control rate,86%
Cc1cc(F)cc2c(CCC(=O)N[C@@H]3C(=O)NC[C@H]3O)c(-c3ccc(F)cc3)[nH]c12,,"APOL1 G2 mice, IFNγ-induced","30 mg/kg twice daily, day 9",,urine albumin/creatinine ratio,296 µg/mg and 245 µg/mg and 6150 µg/mg and 744 µg/mg and 1590 µg/mg
NC(=O)c1cnc2[nH]ccc2c1N[C@@H]1[C@@H]2CC3C[C@H]1C[C@@](O)(C3)C2,"CD8+ effector memory T cells, flow cytometry","Caucasian humans, peripheral blood",200 mg single dose,reference: baseline,percent change,0.25%
CCCn1cc(C)c2c(=O)[nH]c(-c3cc(S(=O)(=O)N4CCN(CC)CC4)ccc3OCC)nc21,,supine,"concentration not given, 0 to 4 h",reference: baseline,change in SBP AUEC(0-4 h),5.04 ± 17.3 mmHg·h
CC#CC(=O)N[C@H]1CCCN(c2c(F)cc(C(N)=O)c3[nH]c(C)c(C)c23)C1,,"healthy volunteers, single ascending dose, serum","30 mg, day 10",,change from baseline in serum IgM,0 mg/L
CC(C)[C@H](C(=O)Nc1ccc(C(=O)NO)cc1)c1ccccc1,volumetric MRI,"human, left posterior fossa tumour","dose not given, day 373",,tumour volume,3.3 cm3
NCC(=O)Nc1cncc(-c2nn3c(=O)cc(N4CCNCC4)nc3s2)c1,"ADP-induced platelet aggregation, light transmission aggregometry","human, stable CAD on aspirin, ex vivo platelets","subcutaneous, 0.04 mg/kg, 120 min post-dose, mean value, added: ADP 20 µM",,inhibition,1.65%
C[C@@H](Nc1cc(F)cc(F)c1)c1cc(C(=O)N(C)C)cc2c(=O)cc(N3CCOCC3)oc12,"immunohistochemistry, measured: phospho-PRAS40","human, tumor biopsy","oral, 120 mg twice daily continuous, 312 h after first dose","reference: baseline, direction not given",pPRAS40 H-score change,-42.2%
O=C(O)CNC(=O)Cc1ccccc1,,"ventricular cardiomyocytes, C57BL/6 mouse","dose not given, 0.824 s",,sarcomere length,1.65 µm
Cc1ccc(NC(=O)c2ccnc(C(F)(F)F)c2)cc1-c1cc(OCCO)nc(N2CCOCC2)c1,,MAPK-altered advanced solid tumour patients,"dose not given, single-agent dose escalation",,overall response rate,2.3%
C[C@H]1O[C@@H](O[C@H]2CC[C@@]3(C)[C@@H](CC[C@]4(C)[C@@H]3C=C[C@]35OC[C@@]6(CCC(C)(C)C[C@H]63)[C@@H](O)C[C@]54C)[C@]2(C)CO)[C@H](O)[C@@H](O[C@@H]2O[C@H](CO)[C@@H](O)[C@H](O)[C@H]2O)[C@H]1O,Western blot,"ethanol-fed mice, liver","dose not given, -M dose",reference: control mice,SIRT1 to β-actin ratio,0.623 fold change and 0.851 fold change and 0.87 fold change
CC(C)c1c(C(=O)Nc2ccccc2)c(-c2ccccc2)c(-c2ccc(F)cc2)n1CC[C@@H](O)C[C@@H](O)CC(=O)O,,"cynomolgus monkey, male, serum","40 mg/kg or 25 mg/kg, day 86, 2064 h",,LDL-C,42.6 mg/dL
CC(C)NCC(O)c1ccc(O)c(O)c1 (stereo not drawn),,"ventricular cardiomyocytes, C57BL/6 mouse","dose not given, 0.308 s",,sarcomere length,1.72 µm
N#Cc1ccc2c(-c3ccncc3)c(-c3ccc(F)cc3)nn2c1,"kinase binding, competitor, MIB/MS competition, measured: YCK2",Candida albicans cell lysate,100 nM,reference: DMSO,log2 fold change,-1.95
N.N.O=C([O-])C1(C(=O)[O-])CCC1.[Pt+2],,"human patient, PBMC DNA","dose not given, 24 h, added: carboplatin",reference: baseline,platinum-DNA adducts,no effect
CC(C)(C)c1cc(C(C)(C)C)c(NC(=O)c2c[nH]c3ccccc3c2=O)cc1O,,isolated rat colon,1 nM to 10 µM,,contraction amplitude,no effect
CN[C@@H]1COc2c(S(=O)(=O)NC(=O)Nc3c4c(cc5c3CCC5)CCC4)cnn2C1,measured: IL-1β,"human participants, whole blood ex vivo","150 mg single dose, 4 h, added: LPS/ATP",reference: baseline,inhibition,99.4%
COc1cc(O)c(CC=C(C)C)c(O)c1C(=O)/C=C/c1ccc(O)cc1,,"male Tac:SW mice, conventional and germ-free","in high-fat diet, dose not given",reference: high-fat diet alone,liver weight,no effect
